Published values collected from several papers.
Protocols differ between the studies behind these lines. Values joined by “and” are separate records of one study, mostly repeats; a detail may differ.
Target: Mitogen-activated protein kinase kinase kinase 4 (MAP3K4, Homo sapiens, UniProt Q9Y6R4)

C=C1CCCCCCCCCC(CO)C1=O (stereo not drawn) — remaining binding (cell-free assay, competition with immobilised ligand; 10 µM): 87%
Cc1cnc2nc1Nc1cccc(c1)COC/C=C/COCc1cc(ccc1OCCN1CCOCC1)N2 — remaining binding (binding; 0.1 µM): 100%
CC(C)=CC1OC(C)(C)C2C=C3C(=O)C(Cl)=CC(O)C3C3C(O)C4OC4C(=O)C132 (stereo not drawn) — remaining binding (cell-free assay, competition with immobilised ligand; 10 µM): 91%
Cn1cc(-c2cnc3ccc(NC(=O)Nc4ccc5sccc5c4)cc3n2)cn1 — inhibition (kinase binding, KiNativ profiling, measured: Lys1 peptide; PANC-1 lysate; 2.5 µM): 4.7%
CN1CCN(Cc2ccc(NC(=O)c3cccc(C#Cc4cnc(N)c5ncccc45)c3)cc2C(F)(F)F)CC1 — remaining binding (cell-free assay, competition with immobilised ligand; 0.5 µM): 100%
CC(=O)N1c2ccc(-c3ccc(CNC(=O)c4cn5cc(-c6cnc(N)nc6)nc(N6CCOCC6)c5n4)cc3)cc2CC[C@@H]1C — remaining binding (KINOMEscan; 10 µM): 98%
CNC1C[S+]2CC[S+]3CC[S+](C1)[Ru-4]321([N]=C=S)[n]2c3ccc(OC)cc3c3c4c(c5cc(F)c[n+]1c5c32)C(=O)NC4=O (stereo not drawn) — remaining binding (KinomeScan; 0.1 µM; relative to: untreated): 100%
C=CC(=O)N1CCCC(n2c(=O)c3ncccc3n(Cc3ccc(Oc4ccccc4)cc3)c2=O)C1 (stereo not drawn) — remaining binding (cell-free assay, competition with immobilised ligand; 1 µM): 90%
CNS(=O)(=O)Nc1nccc(Cc2c(C)c3ccc(Oc4ncccc4F)cc3oc2=O)c1F — remaining binding (binding, competition with immobilised ligand; 10 µM): 88%
COc1cc(Nc2nccc(-c3cnn4nc(OC)ccc34)n2)cc(C(F)(F)F)c1 — remaining binding (binding, competition with immobilised ligand; 1 µM): 97%
Cc1ccc(-c2c(/C=C(\C#N)C(=O)NC(C)C)n(CCCO)c3ncnc(N)c23)cc1 — remaining binding (cell-free assay, competition with immobilised ligand; 1 µM): 99%
COc1ccc(NC(=O)Nc2ccc3c(c2)C(=O)N(C(C)CO)CC(C)C(CN(C)Cc2ccc4c(c2)OCO4)O3)cc1 (stereo not drawn) — remaining binding (binding, competition with immobilised ligand; 10 µM): 86%
CNC(=O)C1CCN(c2cc(C)c(F)cc2NC(=O)c2ccc(-c3cc(O)ccc3C)c(C)c2)CC1 — remaining binding (binding, competition with immobilised ligand; 1 µM): 82%
CCN1CCN(Cc2ccc(C(=O)Nc3ccc(C)c(NCc4cnc5[nH]ccc5c4OC)c3)cc2C(F)(F)F)CC1 — remaining binding (binding, competition with immobilised ligand; 1 µM): 95%
C=CC(=O)N1CCc2ccc(-n3c(=O)ccc4cnc5ccc(-c6cnn(C)c6)cc5c43)cc21 — remaining binding (KINOMEscan; 1 µM; relative to: DMSO control): 100%
COc1c(Cl)cccc1Nc1c(-c2ccncc2C#C[C@@]2(C)CCCN2C(=O)/C=C/CN(C)C)[nH]c2c1C(=O)NCC2 — remaining binding (binding, competition with immobilised ligand; 3 µM): 73%
Nc1ncc2c(n1)-c1c([nH]c3ccc(C4=CCOCC4)cc13)CCC2 — remaining binding (binding, competition with immobilised ligand; 1 µM): 100%
N[C@H]1CC[C@H](Nc2nccc(-c3cccnc3Oc3ccc(NC(=O)NC4CC4)c4ccccc34)n2)CC1 — log2 LFQ intensity (kinobead competition pulldown; HEK293/HCT116 lysate mixture; 10 µM, 1 h, 4 °C; lower = stronger competition): 20.9 and 20.1 and 19.4 and 18.3

Some of these lines once more:
COc1cc(Nc2nccc(-c3cnn4nc(OC)ccc34)n2)cc(C(F)(F)F)c1 — remaining binding (binding, competition with immobilised ligand; 1 µM): 97%
